Results of several laboratories.
± gives the spread as reported.
OXTR: Oxytocin receptor (OXTR, Homo sapiens, UniProt P30559)
UniProt P30559, sequence (whole entry, looked up): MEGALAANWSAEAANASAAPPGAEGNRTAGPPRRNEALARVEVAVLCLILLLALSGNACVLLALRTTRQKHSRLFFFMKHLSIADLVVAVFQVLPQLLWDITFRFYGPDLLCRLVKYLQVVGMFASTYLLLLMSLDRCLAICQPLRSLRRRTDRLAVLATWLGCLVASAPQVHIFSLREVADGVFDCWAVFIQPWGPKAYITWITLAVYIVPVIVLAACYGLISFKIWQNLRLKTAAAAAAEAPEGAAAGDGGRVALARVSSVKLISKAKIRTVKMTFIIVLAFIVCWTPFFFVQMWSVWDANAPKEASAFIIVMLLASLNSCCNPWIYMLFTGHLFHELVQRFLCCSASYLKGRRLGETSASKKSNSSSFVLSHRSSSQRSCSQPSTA
blaNDM-1: Metallo-beta-lactamase type 2 (blaNDM-1, Klebsiella pneumoniae, UniProt C7C422)
Slc18a2: Synaptic vesicular amine transporter (Slc18a2, Rattus norvegicus, UniProt Q01827)
UniProt Q01827, sequence (whole entry, looked up): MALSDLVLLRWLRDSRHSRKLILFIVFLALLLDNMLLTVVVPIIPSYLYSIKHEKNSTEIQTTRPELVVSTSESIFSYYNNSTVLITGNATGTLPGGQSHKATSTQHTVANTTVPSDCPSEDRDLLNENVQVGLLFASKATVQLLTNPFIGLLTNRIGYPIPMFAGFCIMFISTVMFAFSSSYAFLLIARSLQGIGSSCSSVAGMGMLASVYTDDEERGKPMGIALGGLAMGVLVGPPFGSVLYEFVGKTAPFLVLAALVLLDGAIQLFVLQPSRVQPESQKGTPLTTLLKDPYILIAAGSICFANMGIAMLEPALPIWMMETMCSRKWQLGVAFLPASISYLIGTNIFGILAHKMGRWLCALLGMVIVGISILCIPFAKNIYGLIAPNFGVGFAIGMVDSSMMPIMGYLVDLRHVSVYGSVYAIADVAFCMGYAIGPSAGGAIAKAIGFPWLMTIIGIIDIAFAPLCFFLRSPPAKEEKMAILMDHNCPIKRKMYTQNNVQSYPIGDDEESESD
Tmem97: Sigma intracellular receptor 2 (Tmem97, Rattus norvegicus, UniProt Q5U3Y7)
UniProt Q5U3Y7, sequence (whole entry, looked up): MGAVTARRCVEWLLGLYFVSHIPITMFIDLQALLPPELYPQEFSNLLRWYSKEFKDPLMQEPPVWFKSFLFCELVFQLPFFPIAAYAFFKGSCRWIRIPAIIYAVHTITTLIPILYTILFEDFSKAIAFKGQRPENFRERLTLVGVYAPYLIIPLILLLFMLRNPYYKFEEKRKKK
Genome polyprotein NS5B polymerase: Genome polyprotein, NS5B polymerase (Hepatitis C virus genotype 1b, UniProt P26663)
UniProt P33535, sequence (whole entry, looked up): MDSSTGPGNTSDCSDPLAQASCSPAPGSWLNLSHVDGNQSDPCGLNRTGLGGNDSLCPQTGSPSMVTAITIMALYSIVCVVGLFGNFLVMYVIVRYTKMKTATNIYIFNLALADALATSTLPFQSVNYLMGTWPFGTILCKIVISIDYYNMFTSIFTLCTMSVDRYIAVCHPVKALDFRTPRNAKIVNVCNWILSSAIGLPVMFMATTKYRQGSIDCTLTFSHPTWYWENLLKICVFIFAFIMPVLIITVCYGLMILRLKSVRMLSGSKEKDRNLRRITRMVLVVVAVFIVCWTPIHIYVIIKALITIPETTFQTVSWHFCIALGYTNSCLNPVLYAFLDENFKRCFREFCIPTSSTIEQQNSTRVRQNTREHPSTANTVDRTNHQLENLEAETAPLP
UniProt P41146, sequence (whole entry, looked up): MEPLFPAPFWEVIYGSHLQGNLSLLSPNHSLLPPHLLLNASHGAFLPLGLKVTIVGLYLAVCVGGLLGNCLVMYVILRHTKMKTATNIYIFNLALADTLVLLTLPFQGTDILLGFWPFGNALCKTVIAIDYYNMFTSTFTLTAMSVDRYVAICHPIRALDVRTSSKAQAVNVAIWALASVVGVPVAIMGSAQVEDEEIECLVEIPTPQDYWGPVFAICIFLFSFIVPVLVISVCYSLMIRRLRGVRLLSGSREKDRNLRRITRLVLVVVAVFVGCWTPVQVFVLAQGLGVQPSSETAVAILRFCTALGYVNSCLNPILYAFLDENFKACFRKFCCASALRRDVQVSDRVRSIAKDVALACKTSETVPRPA
UniProt Q95LD9, sequence (whole entry, looked up): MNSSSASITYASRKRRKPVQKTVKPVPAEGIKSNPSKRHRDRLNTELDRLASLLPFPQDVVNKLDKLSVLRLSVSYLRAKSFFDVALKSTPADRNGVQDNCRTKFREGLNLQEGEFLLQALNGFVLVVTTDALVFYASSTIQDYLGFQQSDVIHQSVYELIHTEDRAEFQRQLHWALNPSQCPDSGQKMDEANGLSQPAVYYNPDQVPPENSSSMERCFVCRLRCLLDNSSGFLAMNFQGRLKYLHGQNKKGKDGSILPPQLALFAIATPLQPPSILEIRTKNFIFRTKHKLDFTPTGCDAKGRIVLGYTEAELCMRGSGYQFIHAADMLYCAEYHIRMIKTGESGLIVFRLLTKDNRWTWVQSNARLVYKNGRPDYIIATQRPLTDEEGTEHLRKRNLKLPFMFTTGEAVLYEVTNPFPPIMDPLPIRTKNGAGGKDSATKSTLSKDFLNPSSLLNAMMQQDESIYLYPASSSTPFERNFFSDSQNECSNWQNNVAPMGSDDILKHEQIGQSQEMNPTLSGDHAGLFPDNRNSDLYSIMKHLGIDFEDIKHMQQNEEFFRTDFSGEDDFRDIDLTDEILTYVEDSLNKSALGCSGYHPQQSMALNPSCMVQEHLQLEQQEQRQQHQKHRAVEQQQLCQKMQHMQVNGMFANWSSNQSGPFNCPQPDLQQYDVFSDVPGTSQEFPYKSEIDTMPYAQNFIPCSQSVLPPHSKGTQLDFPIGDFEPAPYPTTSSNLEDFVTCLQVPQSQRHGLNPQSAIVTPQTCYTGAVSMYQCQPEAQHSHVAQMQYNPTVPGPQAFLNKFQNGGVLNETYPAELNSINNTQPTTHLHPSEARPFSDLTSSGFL
UniProt P41595, sequence (whole entry, looked up): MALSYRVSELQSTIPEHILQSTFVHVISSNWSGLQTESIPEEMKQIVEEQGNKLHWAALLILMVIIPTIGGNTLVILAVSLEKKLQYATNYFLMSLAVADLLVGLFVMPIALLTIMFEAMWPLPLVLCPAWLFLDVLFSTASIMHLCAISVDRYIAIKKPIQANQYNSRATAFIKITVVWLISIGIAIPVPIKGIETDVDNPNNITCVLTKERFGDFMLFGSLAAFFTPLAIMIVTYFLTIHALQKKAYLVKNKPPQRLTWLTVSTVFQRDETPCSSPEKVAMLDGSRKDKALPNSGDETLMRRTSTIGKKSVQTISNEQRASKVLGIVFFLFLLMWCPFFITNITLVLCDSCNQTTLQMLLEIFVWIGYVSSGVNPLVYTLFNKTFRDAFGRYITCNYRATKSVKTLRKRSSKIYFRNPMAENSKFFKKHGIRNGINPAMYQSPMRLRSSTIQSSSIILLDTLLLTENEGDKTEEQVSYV
UniProt P51451, sequence (whole entry, looked up): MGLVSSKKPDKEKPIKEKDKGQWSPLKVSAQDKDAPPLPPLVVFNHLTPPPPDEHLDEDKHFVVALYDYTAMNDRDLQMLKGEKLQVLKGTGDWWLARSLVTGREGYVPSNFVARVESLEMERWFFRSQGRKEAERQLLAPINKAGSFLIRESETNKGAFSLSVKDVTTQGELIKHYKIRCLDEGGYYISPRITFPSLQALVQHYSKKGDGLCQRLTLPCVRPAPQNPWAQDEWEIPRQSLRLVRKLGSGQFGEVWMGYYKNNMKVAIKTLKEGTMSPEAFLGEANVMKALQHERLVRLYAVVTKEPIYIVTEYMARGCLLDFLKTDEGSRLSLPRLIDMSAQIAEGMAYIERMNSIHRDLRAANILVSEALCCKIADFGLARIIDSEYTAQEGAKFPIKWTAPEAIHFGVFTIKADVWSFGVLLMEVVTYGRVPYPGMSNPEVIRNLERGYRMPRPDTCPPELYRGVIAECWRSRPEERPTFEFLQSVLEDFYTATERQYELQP

CC[C@H](C)[C@@H]1NC(=O)[C@H](Cc2ccc(O)cc2)NC(=O)[C@@H](N)CCn2cc(nn2)C[C@@H](C(=O)N2CCC[C@H]2C(=O)N[C@@H](CC(C)C)C(=O)NCC(N)=O)NC(=O)[C@H](CC(N)=O)NC(=O)[C@H](CCC(N)=O)NC1=O
Ki (OXTR; ligand displacement, radioligand; cell membranes): 4 µM

CC[C@H](C)[C@H](NC(=O)[C@H](CCC(=O)O)NC(=O)[C@H](Cc1ccc(F)cc1)NC(=O)[C@@H](C)NC(=O)[C@@H](N)Cc1ccc(O)cc1)C(=O)N[C@H](C(=O)NCC(N)=O)[C@@H](C)CC
Ki (Oprm1 (Mus musculus, UniProt P42866); ligand displacement, radioligand; cell membranes): > 1 µM

O=C(O)c1cccc(CP(=O)(O)O)n1
Ki (blaNDM-1; enzyme activity, inhibitor): 0.07 µM

c1ccc(CCCC2CCC(CCCc3ccccc3)N2)cc1 (stereo not drawn)
Ki (Slc18a2; transporter uptake, inhibitor, radiometric): 0.014 µM

Cc1cc(O)cc(C)c1C[C@H](N)C(=O)N[C@H](C)C(=O)N[C@@H](Cc1ccccc1)C(=O)N[C@@H](Cc1ccccc1)C(N)=O
Ki (Oprd1 (Mus musculus, UniProt P32300); ligand displacement, radioligand; cell membranes): 0.002 µM

N=C(N)NCCC[C@H](NC(=O)[C@@H]1CCCN1C(=O)[C@@H]1CSSCCC(=O)N[C@]2(CC[C@@H](c3ccccc3)CC2)C(=O)N[C@@H](Cc2ccccc2)C(=O)N[C@@H](CCC(N)=O)C(=O)N[C@@H](CC(N)=O)C(=O)N1)C(=O)NCC(N)=O
Ki (OXTR; ligand displacement, radioligand; cell membranes): 0.0054 µM

CN1C(CCc2ccccc2)CCC1CCc1ccccc1 (stereo not drawn)
Ki (Slc18a2; binding; rat whole brain vesicles; added: 5 nM [3H]dihydrotetrabenazine): 8.8 ± 2.3 µM

C[C@H]1[C@H]2CCC[C@]1(c1cccc(O)c1)CCN2CCc1ccccc1
Ki (Oprm1 (Mus musculus, UniProt P42866); ligand displacement, radioligand; cell membranes): 0.000826 µM

CCCC(=O)c1ccc2c(c1)sc(=O)n2CCCN1CCCCCC1
Ki (Tmem97; ligand displacement, radioligand): 0.104 µM

CNC(=O)C1CCN(c2ccccc2NC(=O)c2ccc(-c3cc(O)ccc3C)c(C)n2)CC1
Ki (BLK (Homo sapiens, UniProt P51451); cell-free assay, TR-FRET): 0.0004 µM

Cc1cc(O)cc(C)c1CC(N)C(=O)NC1CCNc2c(Cc3ccccc3)cc(Cc3ccccc3)cc21 (stereo not drawn)
Ki (Oprm1 (Rattus norvegicus, UniProt P33535); ligand displacement, radioligand; cell membranes): 0.001 µM

CN(C)c1ccc2c(c1)C(=O)N(C(CS)C(N)=O)C2=O (stereo not drawn)
Ki (blaNDM-1; enzyme activity, inhibitor; Km 0.55 µM, added: chromacef 25 µM): 0.22 ± 0.02 µM

CC(C)[C@H]1CC[C@@H](N2CC[C@@](C)(c3cccc(O)c3)[C@@H](C)C2)CC1
Ki (Nociceptin receptor (OPRL1, Homo sapiens, UniProt P41146); ligand displacement, radioligand): > 10 µM

Cc1cc(O)cc(C)c1C[C@H](N)C(=O)N[C@H](C)C(=O)NCC(=O)N(C)[C@@H](Cc1ccccc1)C(=O)N1CCC[C@H]1C(=O)N[C@@H](CC(C)C)C(=O)N[C@@H](Cc1c[nH]c2ccccc12)C(=O)NCc1cc(C(F)(F)F)cc(C(F)(F)F)c1
Ki (mu opioid receptor; radioligand binding): 0.001 µM

CCCC(=O)c1ccc2c(c1)sc(=O)n2CCCCCN1CCCCCC1
Ki (Tmem97; ligand displacement, radioligand): 0.0057 µM

O[C@@H]1[C@@H](O)[C@H](O[C@@H]2OC[C@@H](O)[C@H](O)[C@H]2O)C[C@H]2N[C@@H]12
Ki (endo-1,4-beta-xylanase (Aspergillus aculeatus, UniProt A0A1L9WG58); covalent inhibitor; pH 5.0, added: 4MU-β-D-xylobioside 1 mM): 1 µM

COc1c(OCCOCCOCCOCCOCCOc2cccc(C(=O)C3CCN(CCc4ccc(F)cc4)CC3)c2OC)cccc1C(=O)C1CCN(CCc2ccc(F)cc2)CC1
Ki (HTR2B (Homo sapiens, UniProt P41595); ligand displacement, radioligand): 0.157 µM

Cc1ccc(-c2nc3c(=O)n(C)c(=O)nc-3n(C)n2)cc1
Ki (TPR (Trypanosoma brucei brucei, UniProt P39051); enzyme activity, inhibitor; added: NADPH varied, fixed trypanothione disulfide): 29.4 µM

CCC(=O)c1ccc2c(c1)sc(=O)n2CCCCCN1CCCCCC1
Ki (Tmem97; ligand displacement, radioligand): 0.0083 µM

CC(C)C[C@H](NC(=O)[C@H](CCCNC(=N)N)NC(=O)[C@@H](NC(=O)[C@H](CC(=O)O)NC(=O)[C@H](CCC(N)=O)NC(=O)[C@@H](NC(=O)[C@@H](NC(=O)[C@H](CCCNC(=N)N)NC(=O)[C@H](CO)NC(=O)[C@@H](N)CO)[C@@H](C)O)C(C)C)[C@@H](C)O)C(=O)O
Ki (Sorting nexin-27, PDZ domain (Snx27, Rattus norvegicus, UniProt Q8K4V4); binding, fluorescence polarization competition; added: F*-GIRK3 tracer): 0.46 ± 0.11 µM

CCCCc1ccc2c(c1)sc(=O)n2CCCCCCN1CCCCCC1
Ki (Tmem97; ligand displacement, radioligand): 0.0041 µM

COc1cc2c(cc1O)oc(=O)c1c3cc(O)c(O)cc3oc21
Ki (Genome polyprotein NS5B polymerase; RNA polymerase activity, noncompetitive inhibitor vs UTP; added: UTP 2.5 to 80 µM varied, poly rA/U12 0.25 µM): 4.2 µM

CC(C)(C)OC(=O)C[C@H](NC(=O)OCc1ccccc1)C(=O)CBr
Ki (Prothrombin (F2, Homo sapiens, UniProt P00734)): > 200 µM

O=c1sc2ccccc2n1CCCCCCN1CCCCCC1
Ki (Tmem97; ligand displacement, radioligand): 0.0024 µM

O=[N+]([O-])c1c(Br)c(Cl)c2cccnc2c1O
Ki (blaNDM-1; enzyme activity, inhibitor): 0.22 µM

CC[C@H](C)[C@@H]1NC(=O)[C@H](Cc2ccc(O)cc2)NC(=O)[C@@H](N)CCCCn2cc(nn2)C[C@@H](C(=O)N2CCC[C@H]2C(=O)N[C@@H](CC(C)C)C(=O)NCC(N)=O)NC(=O)[C@H](CC(N)=O)NC(=O)[C@H](CCC(N)=O)NC1=O
Ki (OXTR; ligand displacement, radioligand; cell membranes): 9.8 µM

CCCC(=O)c1ccc2c(c1)sc(=O)n2CCCCN1CCCCCC1
Ki (Tmem97; ligand displacement, radioligand): 0.0216 µM

Clc1cc2oc3cc(Cl)c(Cl)cc3c2cc1Cl
Ki (Aryl hydrocarbon receptor (AHR, Delphinapterus leucas, UniProt Q95LD9); radioligand binding, hydroxyapatite competition binding; in vitro expressed receptor; pH 7.5, beluga Delphinapterus leucas, added: [3H]TCDD 1.6 or 0.9 nM): 0.00033 µM

CCCCc1ccc2c(c1)sc(=O)n2CCCN1CCCCCC1
Ki (Tmem97; ligand displacement, radioligand): 0.0153 µM

O=c1oc2cc(O)c(O)cc2c2oc3cc4c(cc3c12)OCO4
Ki (Genome polyprotein NS5B polymerase; RNA polymerase activity, competitive inhibitor; added: poly rA/U12 varied, UTP 25 µM): 42.6 µM

Excerpt of the above:
CC[C@H](C)[C@@H]1NC(=O)[C@H](Cc2ccc(O)cc2)NC(=O)[C@@H](N)CCCCn2cc(nn2)C[C@@H](C(=O)N2CCC[C@H]2C(=O)N[C@@H](CC(C)C)C(=O)NCC(N)=O)NC(=O)[C@H](CC(N)=O)NC(=O)[C@H](CCC(N)=O)NC1=O
Ki (OXTR; ligand displacement, radioligand; cell membranes): 9.8 µM

c1ccc(CCCC2CCC(CCCc3ccccc3)N2)cc1 (stereo not drawn)
Ki (Slc18a2; transporter uptake, inhibitor, radiometric): 0.014 µM
